Experimental data gathered from unrelated publications.
Protocols differ between the studies behind these lines. Numbers after ± are the reported error.

| Molecule | organism | assay | system | setting | IC50 |
| --- | --- | --- | --- | --- | --- |
| CCCCCCCOc1c(OC)cc(NC(C)CCCNC(=O)C(N)Cc2ccccc2)c2nc(C(C)(C)C)ccc12 (stereo not drawn) | Staphylococcus aureus | microbial growth | ATCC33591 MRSA | drug-resistant strain | 4.33 µg/mL |
| O=Cc1cn(Cc2ccccc2)c2ccc([N+](=O)[O-])cc12 | Trypanosoma brucei gambiense |  | trypomastigotes, IL1922 |  | > 89 µM |
| CCCCCCCCOc1c(OC)cc(NC(C)CCCN)c2nc(C(C)(C)C)ccc12 (stereo not drawn) | Staphylococcus aureus | microbial growth | ATCC33591 MRSA | drug-resistant strain | 2.85 µg/mL |
| C#C[C@]1(CO)O[C@@H](n2cnc3c(N)nc(F)nc32)C[C@@H]1O | Human immunodeficiency virus 1 | cytopathic effect, MTT | MT4 |  | 0.0003 µM |
| C[C@@H]1O[C@@H](O[C@H]2C[C@@H](O)[C@]3(CO)[C@H]4[C@H](O)C[C@]5(C)[C@@H](C6=CC(=O)OC6)CC[C@]5(O)[C@@H]4CC[C@]3(O)C2)[C@H](O)[C@H](O)[C@H]1O | transmissible gastroenteritis virus | viral replication, immunofluorescence | ST cells | 6 h post-infection, pretreated 1 h | 0.147 ± 0.028 µM |
| COc1ccc([C@@H]2CC(=O)c3c(O)cc(O)cc3O2)cc1O | Betacoronavirus 1 | viral replication | HRT-18, OC43 | 24 h | 31.5 µM |
| CCCCOc1c(OC)cc(NC(C)CCCNC(=O)C(N)CCCN)c2nc(C(C)(C)C)ccc12 (stereo not drawn) | Staphylococcus aureus | bacterial growth | MRSA ATCC 33591 |  | > 20 µg/mL |
| CC[C@H](C)[C@H](NC(=O)[C@H]1O[C@@H](O[C@H]2[C@@H](O[C@H]3CC[C@]4(C)[C@H]5C(=O)C=C6[C@@H]7C[C@@](C)(C(=O)N[C@H](C(=O)O)[C@@H](C)CC)CC[C@]7(C)CC[C@@]6(C)[C@]5(C)CC[C@H]4C3(C)C)O[C@H](C(=O)N[C@H](C(=O)O)[C@@H](C)CC)[C@@H](O)[C@@H]2O)[C@H](O)[C@@H](O)[C@@H]1O)C(=O)O | Dengue virus | viral replication, imaging | Vero C1008, DENV2 |  | 1.2 to 1.3 µM |
| O=P(O)(O)C(F)P(=O)(O)O | Trypanosoma cruzi |  | Vero cells, intracellular amastigotes | day 3 post-infection | > 10 µM |
| CCCCCCCOc1c(OC)cc(NC(C)CCCNC(=O)C(N)CCCN)c2nc(C(C)(C)C)ccc12 (stereo not drawn) | Staphylococcus aureus | bacterial growth | MRSA ATCC 33591 |  | > 20 µg/mL |
| nanaomycin | Candida albicans | biofilm formation, XTT | SC5314 | 24 h, 37 °C | 0.609 µM |
| N#C[C@]1(CO)O[C@@H](n2cnc3c(=O)[nH]c(N)nc32)C[C@@H]1O | Hepatitis B virus | Southern blot | Huh-7 transfected, entecavir-resistant L180M/S202G/M204V |  | 0.042 ± 0.034 µM |
| Cc1cn([C@H]2C[C@H](N=[N+]=[N-])[C@@H](CO)O2)c(=O)[nH]c1=O | HIV-1 | virus neutralization | CZA97 |  | 0.185 ± 0.0264 µM |
| Cc1ccc(Cn2cc(C=O)c3cc([N+](=O)[O-])ccc32)cc1 | Trypanosoma brucei gambiense |  | trypomastigotes, IL1922 |  | > 85 µM |
| C[C@@H]1CC[C@H]2[C@@H](C)C(=O)O[C@@H]3O[C@@]4(C)CC[C@@H]1[C@]32OO4 | Leishmania tarentolae | viability, resazurin | promastigotes, Schneider's medium | 48 h, 26 °C, together with: 10% FCS | 23.2 ± 15.6 µM |
| CCCCCCCCCC(F)(P(=O)(O)O)P(=O)(O)O | Trypanosoma cruzi |  | Vero cells, intracellular amastigotes | day 3 post-infection | > 10 µM |
| O=c1cc(-c2ccc(O)cc2)oc2cc(O)cc(O)c12 | human cytomegalovirus | viral replication, titre reduction | HEL fibroblasts, Towne |  | 6.4 µM |
| CC(C)C12C=CC(C)(CC1)OO2 (stereo not drawn) | Leishmania tarentolae | viability, resazurin | promastigotes, YEM/PBS | 48 h, 26 °C, together with: 10% FCS | 25.2 ± 5.4 µM |
| CCCN(CCC)C(=S)NN=Cc1ccccn1.[Cl][Cu][Cl] | Candida albicans | biofilm formation, XTT | SC5314 | 24 h, 37 °C | 0.549 µM |
| Nc1nc(O)c2ncn(COC(CO)CO)c2n1 | Human betaherpesvirus 5 | viral replication, absorbance | human Fibroblast | 72 h | > 100 µM |
| NCC(O)CN.Oc1c(Cl)c(Cl)c(Cl)c(Cl)c1Cl | Candida albicans | biofilm formation, XTT | SC5314 | 24 h, 37 °C | 2.88 µM |
| CCCCCCCCOc1c(OC)cc(NC(C)CCCNC(=O)C2CCCN2)c2nc(C(C)(C)C)ccc12 (stereo not drawn) | Staphylococcus aureus | microbial growth | ATCC33591 MRSA | drug-resistant strain | 5.49 µg/mL |
| Nc1cc[c]([Hg][S]c2nc(N)nc3c2ncn3[C@@H]2O[C@H](CO)[C@@H](O)[C@H]2O)cc1 | Candida albicans | biofilm formation, XTT | SC5314 | 24 h, 37 °C | 1.94 µM |
| CCCCCCOc1c(OC)cc(NC(C)CCCNC(=O)C(N)C(C)CC)c2nc(C(C)(C)C)ccc12 (stereo not drawn) | Staphylococcus aureus | microbial growth | ATCC33591 MRSA | drug-resistant strain | 10 µg/mL |

| Molecule | organism | assay | system | setting | IC50 |
| --- | --- | --- | --- | --- | --- |
| CCCCCCCCNC(C)C(O)c1ccc(SC(C)C)cc1 (stereo not drawn) | Plasmodium falciparum | parasite proliferation, SYBR Green | 3D7 | 72 h | 1.7 µM |
| O=C(O)[C@H]1O[C@@H](Oc2cc3oc(-c4ccccc4)cc(=O)c3c(O)c2O)[C@H](O)[C@@H](O)[C@@H]1O | human cytomegalovirus | viral replication, titre reduction | HEL fibroblasts, Towne |  | 15 ± 0.5 µM |
| CCCCCCCCCCOc1cc2c(O)c(C(=O)OCC)cnc2cc1OCC | Plasmodium falciparum | parasite proliferation, SYBR Green | 3D7 | 72 h | 0.0043 µM |
| CCCCCOc1c(OC)cc(NC(C)CCCN)c2nc(C(C)(C)C)cc(C)c12 (stereo not drawn) | Staphylococcus aureus | microbial growth | ATCC33591 MRSA | drug-resistant strain | 10.5 µg/mL |
| CCCCCCC(C)CC1=C(O)C(=O)c2c(C)cccc2C1=O (stereo not drawn) | Plasmodium berghei | parasite growth, luciferase | Huh-7 | 48 h, liver stage | 0.246 µM |
| C[C@@]1(F)[C@H](O)[C@@H](CO)O[C@H]1n1ccc(N)nc1=O | Norwalk virus | viral replication, inhibitor | RAW264.7 |  | 33.9 µM |
| COc1cc2c3c(c4cc(OC)c(OC)cc4c2cc1OC)CN1CCC[C@@H]1C3 | transmissible gastroenteritis virus | viral replication, immunofluorescence | ST cells | 6 h post-infection, pretreated 1 h | 0.311 ± 0.07 µM |
| CCCCCCC(C)CC1=C(O)C(=O)c2ccccc2C1=O (stereo not drawn) | Plasmodium berghei | parasite growth, luciferase | Huh-7 | 48 h, liver stage | 0.0962 µM |
| N=C(N)NCCCCCCCCCCNC(=N)N | Plasmodium falciparum | parasite proliferation, SYBR Green | 3D7 | 72 h | 0.027 µM |
| CC[C@]1(CO)O[C@@H](n2cnc3c(N)nc(N)nc32)C[C@@H]1O | Human immunodeficiency virus 1 | cytopathic effect, MTT | MT4 |  | 0.0089 µM |
| O=C(C[n+]1ccc2ccccc2c1)c1ccc2ccc3ccccc3c2c1 | Candida albicans | biofilm formation, XTT | SC5314 | 24 h, 37 °C | 3.4 µM |
| Nc1nc2c(ncn2COCCO)c(=O)[nH]1 | Human alphaherpesvirus 1 | viral replication, plaque reduction | HFFF, 17 thymidine kinase-deleted, GFP | 3 days | 73 ± 18 µM |
| c1ccc(Oc2ccc(Nc3c4c(nc5ccccc35)CCC4)cc2)cc1 | Leishmania donovani |  | DD8 resistant line, intracellular amastigotes |  | 4.94 ± 0.69 µM |
| CC(CCCCCC(F)(F)F)CC1=C(O)C(=O)c2ccccc2C1=O (stereo not drawn) | Plasmodium berghei | parasite growth, luciferase | Huh-7 | 48 h, liver stage | 0.0171 µM |
| O=C(NC(=O)c1c(F)cccc1F)Nc1ccc(Cl)cc1 | Lucilia cuprina | larval weight gain | LS strain, larvae on impregnated cotton wool | 24 h | 0.23 µg |
| Fc1ccc(C2(Cn3cncn3)Cn3ccnc3O2)c(F)c1 (stereo not drawn) | Trypanosoma cruzi | parasite growth | Tulahuen C4 amastigotes |  | 4 to 60 µM |
| O=c1c(O)c(-c2ccc(O)c(O)c2)oc2cc(O)cc(O)c12 | human cytomegalovirus | viral replication, titre reduction | HEL fibroblasts, Towne |  | 3.2 ± 0.8 µM |
| NC(=O)c1ncn([C@@H]2O[C@H](CO)[C@@H](O)[C@H]2O)n1 | Norwalk virus | viral replication, inhibitor | RAW264.7 |  | 73.5 µM |
| O=c1c(O)c(-c2ccccc2)oc2cc(O)cc(O)c12 | Human betaherpesvirus 5 | viral replication, absorbance | human Fibroblast | 72 h | > 40 µM |
| CCCCCOc1c(OC)cc(NC(C)CCCNC(=O)C(N)CCCCN)c2nc(C(C)(C)C)ccc12 (stereo not drawn) | Staphylococcus aureus | bacterial growth | MRSA ATCC 33591 |  | > 20 µg/mL |
| guanidine hydrochloride | coxsackievirus B3 | cytopathic effect | HeLa, 97927 I1207T | 48 h | 725 µM |
| O=C1C[C@@H](c2ccc(O)cc2)Oc2cc(O)cc(O)c21 | human cytomegalovirus | viral replication, titre reduction | HEL fibroblasts, Towne |  | > 40 µM |
| CCCCCCC(F)(P(=O)(O)O)P(=O)(O)O | Trypanosoma cruzi |  | Vero cells, intracellular amastigotes | day 3 post-infection | > 10 µM |
| meglumine antimoniate | Leishmania braziliensis |  |  | intracellular amastigotes | 30.4 ± 6.1 µM |

A few entries again:
| Molecule | organism | assay | system | setting | IC50 |
| --- | --- | --- | --- | --- | --- |
| CCCCCCOc1c(OC)cc(NC(C)CCCNC(=O)C(N)C(C)CC)c2nc(C(C)(C)C)ccc12 (stereo not drawn) | Staphylococcus aureus | microbial growth | ATCC33591 MRSA | drug-resistant strain | 10 µg/mL |
| CCCCCCCCNC(C)C(O)c1ccc(SC(C)C)cc1 (stereo not drawn) | Plasmodium falciparum | parasite proliferation, SYBR Green | 3D7 | 72 h | 1.7 µM |
| O=C(O)[C@H]1O[C@@H](Oc2cc3oc(-c4ccccc4)cc(=O)c3c(O)c2O)[C@H](O)[C@@H](O)[C@@H]1O | human cytomegalovirus | viral replication, titre reduction | HEL fibroblasts, Towne |  | 15 ± 0.5 µM |
| CCCCCCCCCCOc1cc2c(O)c(C(=O)OCC)cnc2cc1OCC | Plasmodium falciparum | parasite proliferation, SYBR Green | 3D7 | 72 h | 0.0043 µM |
